Measurements of several laboratories.
Lines come from different studies, so protocols differ. ± gives the spread as reported.
Histone acetyltransferase RTT109 with Vps75: Histone acetyltransferase RTT109, with Vps75 (Saccharomyces cerevisiae, UniProt Q07794)
Chain of UniProt Q07794 (whole entry, looked up): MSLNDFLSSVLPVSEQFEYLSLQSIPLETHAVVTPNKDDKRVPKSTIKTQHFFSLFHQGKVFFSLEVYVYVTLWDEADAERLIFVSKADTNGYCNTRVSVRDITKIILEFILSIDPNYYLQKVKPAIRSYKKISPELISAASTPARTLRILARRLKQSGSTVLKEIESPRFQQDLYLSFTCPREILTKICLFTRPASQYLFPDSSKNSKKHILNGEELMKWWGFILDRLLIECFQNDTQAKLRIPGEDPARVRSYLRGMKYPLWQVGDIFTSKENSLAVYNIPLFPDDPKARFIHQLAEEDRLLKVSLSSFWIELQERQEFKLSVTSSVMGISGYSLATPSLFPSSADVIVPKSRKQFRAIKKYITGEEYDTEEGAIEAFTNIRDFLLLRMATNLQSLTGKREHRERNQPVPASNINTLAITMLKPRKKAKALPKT
Chain of UniProt P51575 (whole entry, unmodified, looked up): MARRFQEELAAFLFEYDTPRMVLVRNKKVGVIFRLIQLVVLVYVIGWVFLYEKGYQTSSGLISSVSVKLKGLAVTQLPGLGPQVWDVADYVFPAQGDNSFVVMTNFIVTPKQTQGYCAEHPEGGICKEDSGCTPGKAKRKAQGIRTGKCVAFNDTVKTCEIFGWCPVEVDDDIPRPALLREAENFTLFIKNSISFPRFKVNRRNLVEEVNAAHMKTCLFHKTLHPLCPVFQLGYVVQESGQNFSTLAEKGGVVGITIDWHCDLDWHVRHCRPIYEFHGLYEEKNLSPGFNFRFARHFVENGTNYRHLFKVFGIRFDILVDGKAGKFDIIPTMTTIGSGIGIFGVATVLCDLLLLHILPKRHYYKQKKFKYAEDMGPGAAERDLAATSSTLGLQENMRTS
Chain of UniProt Q8BHY3 (whole entry, unmodified, looked up): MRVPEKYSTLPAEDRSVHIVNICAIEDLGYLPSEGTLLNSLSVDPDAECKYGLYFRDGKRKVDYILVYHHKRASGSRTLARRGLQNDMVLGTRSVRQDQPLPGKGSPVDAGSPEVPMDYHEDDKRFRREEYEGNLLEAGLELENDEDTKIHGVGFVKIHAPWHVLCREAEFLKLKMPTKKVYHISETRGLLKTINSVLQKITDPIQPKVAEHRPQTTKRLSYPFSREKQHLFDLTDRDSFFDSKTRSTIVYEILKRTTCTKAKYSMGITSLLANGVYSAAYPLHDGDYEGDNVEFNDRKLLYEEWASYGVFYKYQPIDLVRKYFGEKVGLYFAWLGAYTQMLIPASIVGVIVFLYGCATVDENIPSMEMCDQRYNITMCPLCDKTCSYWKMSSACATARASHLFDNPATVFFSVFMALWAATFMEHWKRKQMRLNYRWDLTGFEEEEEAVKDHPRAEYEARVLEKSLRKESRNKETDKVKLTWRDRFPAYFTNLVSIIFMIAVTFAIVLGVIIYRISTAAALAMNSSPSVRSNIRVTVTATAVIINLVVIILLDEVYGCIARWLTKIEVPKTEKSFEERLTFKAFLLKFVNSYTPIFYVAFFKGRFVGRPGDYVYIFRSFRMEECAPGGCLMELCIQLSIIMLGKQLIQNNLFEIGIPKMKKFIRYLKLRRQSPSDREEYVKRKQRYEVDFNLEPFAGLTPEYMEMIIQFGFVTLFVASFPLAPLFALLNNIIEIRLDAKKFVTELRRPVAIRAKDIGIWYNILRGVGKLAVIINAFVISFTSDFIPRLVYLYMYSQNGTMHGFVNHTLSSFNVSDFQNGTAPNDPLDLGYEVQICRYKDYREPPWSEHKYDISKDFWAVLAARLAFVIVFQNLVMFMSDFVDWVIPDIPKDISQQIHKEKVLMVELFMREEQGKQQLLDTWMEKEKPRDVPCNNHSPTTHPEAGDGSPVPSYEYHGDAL
Chain of UniProt P42680 (whole entry, looked up): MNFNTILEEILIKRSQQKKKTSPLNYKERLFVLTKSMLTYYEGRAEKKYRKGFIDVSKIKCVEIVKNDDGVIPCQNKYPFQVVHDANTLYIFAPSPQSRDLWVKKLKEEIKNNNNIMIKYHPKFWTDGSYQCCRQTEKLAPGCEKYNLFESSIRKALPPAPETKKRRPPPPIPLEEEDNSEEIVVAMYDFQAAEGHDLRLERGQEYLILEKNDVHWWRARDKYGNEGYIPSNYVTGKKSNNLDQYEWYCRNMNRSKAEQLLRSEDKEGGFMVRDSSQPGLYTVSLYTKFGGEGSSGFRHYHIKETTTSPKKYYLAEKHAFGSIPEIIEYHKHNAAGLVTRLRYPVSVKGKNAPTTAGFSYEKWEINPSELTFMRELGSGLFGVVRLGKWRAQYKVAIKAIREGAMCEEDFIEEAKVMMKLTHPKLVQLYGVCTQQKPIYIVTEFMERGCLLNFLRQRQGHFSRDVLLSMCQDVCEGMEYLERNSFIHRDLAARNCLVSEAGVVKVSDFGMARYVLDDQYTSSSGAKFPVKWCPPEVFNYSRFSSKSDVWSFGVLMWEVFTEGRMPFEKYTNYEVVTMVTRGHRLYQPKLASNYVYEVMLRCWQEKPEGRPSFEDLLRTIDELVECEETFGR
Chain of UniProt P61823 (whole entry, looked up): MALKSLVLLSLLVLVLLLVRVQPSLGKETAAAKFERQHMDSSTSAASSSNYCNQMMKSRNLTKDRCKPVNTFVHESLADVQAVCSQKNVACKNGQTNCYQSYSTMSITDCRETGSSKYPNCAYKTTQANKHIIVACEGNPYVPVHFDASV

| Compound | tested on | assay | system | setting | quantity | value |
| --- | --- | --- | --- | --- | --- | --- |
| O=C1CC(c2cn(Cc3ccccc3)c3ccccc23)C(=O)N1c1ccc(Br)cc1 (stereo not drawn) | Histone acetyltransferase RTT109 with Vps75 | enzyme activity, inhibitor, HTS, CPM-based, dose response |  |  | IC50 | > 125 µM |
| Nc1ccn([C@@H]2O[C@H](COP(=O)(O)OP(=O)(O)O)[C@@H](O)[C@H]2O)c(=O)n1 | Ribonuclease pancreatic (RNASE1, Bos taurus, UniProt P61823) | binding, native mass spectrometry | solution | single-point method, added: protein 0 to 0.2 µM | Kd | 4.1 ± 0.2 µM |
| COc1cc(Nc2ncc3c(n2)-c2ccc(Cl)cc2C(c2c(F)cccc2OC)=NC3)ccc1C(=O)NCCOCCOCCNC(=O)COc1cccc2c1C(=O)N(C1CCC(=O)NC1=O)C2=O (stereo not drawn) | Tyrosine-protein kinase Tec (TEC, Homo sapiens, UniProt P42680) | binding, kinobead competition | MV4-11 cell lysate |  | EC50 | > 30 µM |
| CC[C@H](C)[C@H](NC(=O)[C@H](Cc1ccc(OP(=O)(O)O)cc1)NC(=O)[C@H](CC(N)=O)NC(=O)[C@H](CC(C)C)NC(=O)[C@@H](N)CO)C(=O)N[C@@H](CC(=O)O)C(=O)N[C@@H](CC(C)C)C(=O)N[C@@H](CC(=O)O)C(=O)N[C@@H](CC(C)C)C(=O)N[C@H](C(=O)N[C@@H](CCCCN)C(=O)O)C(C)C | Tyrosine-protein phosphatase non-receptor type 11 (PTPN11, Homo sapiens, UniProt Q06124, E249R/S502P) | enzyme activity, activator |  | pH 7.0, 2% DMSO, added: DiFMUP 100 µM, phosphopeptide | EC50 | 2 ± 0.5 µM |
| COc1ccc(Nc2nnc(S)s2)cc1 | Histone acetyltransferase RTT109 with Vps75 | enzyme activity, inhibitor, HTS, CPM-based, dose response |  |  | IC50 | 64 ± 9 µM |
| CC(=O)OC[C@H]1O[C@@H]([S-])[C@H](OC(C)=O)[C@@H](OC(C)=O)[C@@H]1OC(C)=O.CCP(CC)CC.[Au+] | Toxoplasma gondii | tachyzoite growth, luciferase | ME49-Fluc, type II |  | EC50 | 1.12 µM |
| Nc1ncnc2c1ncn2[C@@H]1O[C@H](COP(=O)(O)OP(=O)(O)OP(=O)(O)O)[C@@H](O)[C@H]1O | P2X purinoceptor 1 (P2RX1, Homo sapiens, UniProt P51575, K136E/K138D/K140L) | ion current, agonist, two-electrode voltage clamp |  | 3 | EC50 | 3.49 µM |
| c1ccc(Nc2nc(-c3ccccc3)no2)cc1 | Histone acetyltransferase RTT109 with Vps75 | enzyme activity, inhibitor, HTS, CPM-based, dose response |  |  | IC50 | > 125 µM |
| O=C(Nc1ccc([N+](=O)[O-])cc1Cl)c1cc(Cl)ccc1O | Anoctamin-1 (Ano1, Mus musculus, UniProt Q8BHY3, F781A) | chloride current, whole-cell patch clamp | HEK-293T TMEM16F knockout |  | EC50 | 3.07 ± 0.75 µM |
